Experimental data from different studies.
Parts stem from different laboratories: compare values within a part only. Positions count from the first letter of the parent shown.

Series 1
Target: Interferon regulatory factor 3, full length, phosphomimetic (IRF3, Homo sapiens, UniProt Q14653, residues 1-427, S386D/S396D/S398D/S402D/T404D/S405D)
Sequence of UniProt Q14653 (whole entry, unmodified, looked up): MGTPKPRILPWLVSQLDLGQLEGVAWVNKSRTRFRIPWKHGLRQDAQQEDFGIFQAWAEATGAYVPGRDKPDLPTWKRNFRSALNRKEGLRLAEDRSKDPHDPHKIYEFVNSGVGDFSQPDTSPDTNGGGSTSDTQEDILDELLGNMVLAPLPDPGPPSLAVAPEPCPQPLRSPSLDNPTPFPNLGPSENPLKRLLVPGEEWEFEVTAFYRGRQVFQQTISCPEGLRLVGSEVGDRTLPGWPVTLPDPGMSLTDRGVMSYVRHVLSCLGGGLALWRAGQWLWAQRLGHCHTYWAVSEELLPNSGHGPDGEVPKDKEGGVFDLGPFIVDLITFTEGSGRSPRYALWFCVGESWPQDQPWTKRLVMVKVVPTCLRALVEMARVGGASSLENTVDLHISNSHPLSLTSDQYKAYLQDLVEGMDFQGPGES
Technique: protein-binding microarray
Form: double-stranded DNA, one strand shown
Medium: in vitro
Concentration: 2540 nM top
Setting: 60-bp whole probe
Together with: salmon DNA 0.4 mg/ml
Relative to: random background probes
Reading: higher = stronger binding
Measurement: fitted relative affinity
Shared flanks, not repeated: GCCTAGCAC … GTCTTGATTCGCTTGACGCTGCTG
GACGATTTGAGACTGGAGACGTGCTAG: 0.0201 z-score
TTAGAACTGAGTTTCGACTAGTGCTAG: 0.661 z-score
TTTGGTGTCTTTTGTGGAAACGTGCTA: 0.239 z-score
CTTTACTTCACTCTCTGCTTGTGCTAG: 1.09 z-score
GACGGTTTCGACTATCGGGATGTGCTA: 2.9 z-score

Series 2
Target: Max-binding protein MNT, bHLH-zipper, MAX partner unstated (MNT, Homo sapiens, UniProt Q99583, residues 220-300)
Technique: protein-binding microarray
Form: double-stranded DNA, one strand shown
Medium: in vitro
Concentration: not given
Setting: k-mer, scored over probes, only values ≥0.25
Reading: higher = stronger binding
Measurement: E-score
Target sequence (chain): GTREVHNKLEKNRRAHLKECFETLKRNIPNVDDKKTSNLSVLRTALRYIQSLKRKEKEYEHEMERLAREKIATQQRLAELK
CCTCCACG: 0.329
ACGTTAGG: 0.263
ATCGCGTG: 0.402
ATGAGGCG: 0.276
CGATCCAC: 0.272
AACATGCT: 0.356
GCATGTAC: 0.382

Series 3
Target: CCNA1, cyclin fold, Cln2 fusion (human)
Technique: yeast growth competition, sequencing
Medium: yeast
Setting: weak parent motif
Relative to: not given
Reading: higher = stronger binding
Measurement: normalised enrichment score
Starting sequence: ORC1 docking peptide (human); PRARKRLELGNLG
PRARKRMELGNLG [L7M]: 0.0655
PRARKRLELGNLP [G13P]: 0.545
PRARHRLELGNLG [K5H]: 0.219
PRARARLELGNLG [K5A]: 0.252
PRARKRLELGNAG [L12A]: 0.419
PVARKRLELGNLG [R2V]: 0.316

Other studies, line by line
PhoQ, residues 284 288 289 292 302 303 SSCCRF
fold induction (PhoP, residues 12 14 15 18 19 LWHVM (Escherichia coli, UniProt P23836); Sort-seq, measured: YFP reporter; E. coli; PhoQ-PhoP variant library, together with: 10 µM Mg2+; relative to: high Mg2+ state, higher = stronger signaling): 2.32
